Measured values gathered from unrelated publications.
Compare with care: the assays were run in different laboratories. Values joined by “and” are separate records of one study, mostly repeats; a detail may differ. ± marks the error that the study gave.
Palmitoyl-protein thioesterase ABHD10, mitochondrial: Palmitoyl-protein thioesterase ABHD10, mitochondrial (Mus musculus, UniProt Q6PE15)
Sequence of UniProt Q6PE15 (whole entry, looked up): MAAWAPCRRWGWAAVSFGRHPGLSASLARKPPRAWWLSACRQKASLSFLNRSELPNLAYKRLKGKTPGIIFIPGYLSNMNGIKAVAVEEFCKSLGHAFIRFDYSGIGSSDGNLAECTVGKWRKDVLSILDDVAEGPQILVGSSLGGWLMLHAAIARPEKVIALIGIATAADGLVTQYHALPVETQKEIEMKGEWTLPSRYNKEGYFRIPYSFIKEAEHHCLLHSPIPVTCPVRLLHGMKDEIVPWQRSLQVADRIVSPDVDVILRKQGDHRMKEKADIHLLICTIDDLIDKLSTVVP
Oprd1: Delta-type opioid receptor (Oprd1, Rattus norvegicus, UniProt P33533)
Sequence of UniProt P33533 (whole entry, looked up): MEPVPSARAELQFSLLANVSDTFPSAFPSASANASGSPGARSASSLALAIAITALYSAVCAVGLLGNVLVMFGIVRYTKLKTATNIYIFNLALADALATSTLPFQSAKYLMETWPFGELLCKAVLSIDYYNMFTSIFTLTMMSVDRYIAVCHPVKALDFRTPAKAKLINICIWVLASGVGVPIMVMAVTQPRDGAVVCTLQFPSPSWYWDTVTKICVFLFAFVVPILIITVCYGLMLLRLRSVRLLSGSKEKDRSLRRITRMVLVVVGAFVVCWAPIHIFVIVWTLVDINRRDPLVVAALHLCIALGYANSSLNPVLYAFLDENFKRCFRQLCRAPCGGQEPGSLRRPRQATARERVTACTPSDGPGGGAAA
Sequence of UniProt Q9UH17 (whole entry, looked up): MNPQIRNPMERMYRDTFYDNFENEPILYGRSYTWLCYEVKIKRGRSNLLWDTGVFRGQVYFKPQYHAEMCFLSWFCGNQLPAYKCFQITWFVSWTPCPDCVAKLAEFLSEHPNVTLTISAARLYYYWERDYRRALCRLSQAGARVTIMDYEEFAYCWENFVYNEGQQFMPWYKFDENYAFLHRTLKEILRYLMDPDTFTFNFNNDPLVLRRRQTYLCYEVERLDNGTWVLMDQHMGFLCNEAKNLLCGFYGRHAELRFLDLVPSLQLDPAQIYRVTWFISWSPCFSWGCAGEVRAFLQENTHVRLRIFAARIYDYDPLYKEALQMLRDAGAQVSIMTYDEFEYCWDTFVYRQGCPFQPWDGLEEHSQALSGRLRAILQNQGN
Sequence of UniProt Q9Y2J8 (whole entry, looked up): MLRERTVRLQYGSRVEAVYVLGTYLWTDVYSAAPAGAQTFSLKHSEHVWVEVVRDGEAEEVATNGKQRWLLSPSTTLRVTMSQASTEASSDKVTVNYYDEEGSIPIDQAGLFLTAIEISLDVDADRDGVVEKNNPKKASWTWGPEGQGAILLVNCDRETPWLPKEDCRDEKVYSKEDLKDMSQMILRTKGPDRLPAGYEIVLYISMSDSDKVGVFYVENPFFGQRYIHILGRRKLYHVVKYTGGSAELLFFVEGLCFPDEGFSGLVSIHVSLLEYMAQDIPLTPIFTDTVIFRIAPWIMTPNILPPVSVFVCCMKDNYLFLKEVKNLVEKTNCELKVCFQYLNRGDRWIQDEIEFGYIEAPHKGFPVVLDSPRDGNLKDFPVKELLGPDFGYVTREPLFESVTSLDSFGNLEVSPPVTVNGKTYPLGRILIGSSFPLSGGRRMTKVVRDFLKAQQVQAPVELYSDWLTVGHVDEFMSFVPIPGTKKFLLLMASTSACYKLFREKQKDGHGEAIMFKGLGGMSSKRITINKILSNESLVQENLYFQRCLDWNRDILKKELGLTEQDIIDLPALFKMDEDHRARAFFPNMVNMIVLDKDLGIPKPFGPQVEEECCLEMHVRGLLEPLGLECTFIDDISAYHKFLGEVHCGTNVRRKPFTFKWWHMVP
Sequence of UniProt O15264 (whole entry, looked up): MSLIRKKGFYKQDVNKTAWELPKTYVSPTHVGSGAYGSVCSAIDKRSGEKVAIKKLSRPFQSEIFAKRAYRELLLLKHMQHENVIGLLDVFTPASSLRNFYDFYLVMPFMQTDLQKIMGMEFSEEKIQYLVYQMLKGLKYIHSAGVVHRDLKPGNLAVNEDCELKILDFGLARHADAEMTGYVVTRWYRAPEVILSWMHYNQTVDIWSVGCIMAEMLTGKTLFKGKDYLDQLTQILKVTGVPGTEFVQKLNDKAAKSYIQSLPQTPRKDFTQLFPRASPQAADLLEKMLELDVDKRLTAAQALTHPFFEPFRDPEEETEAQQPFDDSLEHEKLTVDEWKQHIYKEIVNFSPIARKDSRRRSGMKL
Sequence of UniProt Q9C0K7 (whole entry, looked up): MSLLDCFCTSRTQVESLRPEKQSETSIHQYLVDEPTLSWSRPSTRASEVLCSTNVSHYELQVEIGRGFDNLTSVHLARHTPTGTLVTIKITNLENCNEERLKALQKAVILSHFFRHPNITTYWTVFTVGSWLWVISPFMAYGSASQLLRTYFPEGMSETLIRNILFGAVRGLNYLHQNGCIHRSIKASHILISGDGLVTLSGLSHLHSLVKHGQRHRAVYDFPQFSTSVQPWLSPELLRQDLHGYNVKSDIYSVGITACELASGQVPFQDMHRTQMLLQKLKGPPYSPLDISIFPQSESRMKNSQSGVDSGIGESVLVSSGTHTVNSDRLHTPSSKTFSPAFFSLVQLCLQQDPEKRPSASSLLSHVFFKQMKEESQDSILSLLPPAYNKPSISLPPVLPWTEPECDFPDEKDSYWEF
Sequence of UniProt P07384 (whole entry, looked up): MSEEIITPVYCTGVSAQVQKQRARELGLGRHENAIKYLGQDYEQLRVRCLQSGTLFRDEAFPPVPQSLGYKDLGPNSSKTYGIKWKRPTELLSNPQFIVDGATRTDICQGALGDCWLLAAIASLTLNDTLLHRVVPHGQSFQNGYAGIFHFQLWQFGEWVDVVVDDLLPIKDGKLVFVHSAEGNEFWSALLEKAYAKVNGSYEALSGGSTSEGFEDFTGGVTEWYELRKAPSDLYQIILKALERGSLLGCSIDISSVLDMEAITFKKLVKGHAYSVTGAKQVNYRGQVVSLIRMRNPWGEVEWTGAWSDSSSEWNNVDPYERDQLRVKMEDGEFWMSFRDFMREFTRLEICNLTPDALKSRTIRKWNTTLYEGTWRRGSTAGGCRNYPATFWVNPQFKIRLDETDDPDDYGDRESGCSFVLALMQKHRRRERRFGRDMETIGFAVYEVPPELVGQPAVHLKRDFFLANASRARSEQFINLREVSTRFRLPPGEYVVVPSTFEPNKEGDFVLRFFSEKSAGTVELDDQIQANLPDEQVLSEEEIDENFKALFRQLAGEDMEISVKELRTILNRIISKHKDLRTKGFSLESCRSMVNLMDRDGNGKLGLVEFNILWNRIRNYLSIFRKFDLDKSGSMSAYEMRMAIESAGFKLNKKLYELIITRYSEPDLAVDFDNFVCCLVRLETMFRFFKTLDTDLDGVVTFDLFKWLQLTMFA
Sequence of UniProt Q8BLF1 (whole entry, looked up): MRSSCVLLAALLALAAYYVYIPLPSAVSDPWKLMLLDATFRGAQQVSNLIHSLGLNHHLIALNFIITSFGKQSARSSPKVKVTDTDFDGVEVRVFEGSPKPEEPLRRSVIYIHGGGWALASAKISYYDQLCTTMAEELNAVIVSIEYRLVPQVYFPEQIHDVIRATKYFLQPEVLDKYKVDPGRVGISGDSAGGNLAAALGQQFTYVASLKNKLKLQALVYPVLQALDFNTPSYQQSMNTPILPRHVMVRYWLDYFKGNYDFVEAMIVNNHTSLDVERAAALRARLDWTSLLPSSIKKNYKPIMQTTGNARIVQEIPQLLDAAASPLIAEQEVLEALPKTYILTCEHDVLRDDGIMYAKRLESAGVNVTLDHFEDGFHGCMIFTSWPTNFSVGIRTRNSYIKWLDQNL
Sequence of UniProt P30530 (whole entry, looked up): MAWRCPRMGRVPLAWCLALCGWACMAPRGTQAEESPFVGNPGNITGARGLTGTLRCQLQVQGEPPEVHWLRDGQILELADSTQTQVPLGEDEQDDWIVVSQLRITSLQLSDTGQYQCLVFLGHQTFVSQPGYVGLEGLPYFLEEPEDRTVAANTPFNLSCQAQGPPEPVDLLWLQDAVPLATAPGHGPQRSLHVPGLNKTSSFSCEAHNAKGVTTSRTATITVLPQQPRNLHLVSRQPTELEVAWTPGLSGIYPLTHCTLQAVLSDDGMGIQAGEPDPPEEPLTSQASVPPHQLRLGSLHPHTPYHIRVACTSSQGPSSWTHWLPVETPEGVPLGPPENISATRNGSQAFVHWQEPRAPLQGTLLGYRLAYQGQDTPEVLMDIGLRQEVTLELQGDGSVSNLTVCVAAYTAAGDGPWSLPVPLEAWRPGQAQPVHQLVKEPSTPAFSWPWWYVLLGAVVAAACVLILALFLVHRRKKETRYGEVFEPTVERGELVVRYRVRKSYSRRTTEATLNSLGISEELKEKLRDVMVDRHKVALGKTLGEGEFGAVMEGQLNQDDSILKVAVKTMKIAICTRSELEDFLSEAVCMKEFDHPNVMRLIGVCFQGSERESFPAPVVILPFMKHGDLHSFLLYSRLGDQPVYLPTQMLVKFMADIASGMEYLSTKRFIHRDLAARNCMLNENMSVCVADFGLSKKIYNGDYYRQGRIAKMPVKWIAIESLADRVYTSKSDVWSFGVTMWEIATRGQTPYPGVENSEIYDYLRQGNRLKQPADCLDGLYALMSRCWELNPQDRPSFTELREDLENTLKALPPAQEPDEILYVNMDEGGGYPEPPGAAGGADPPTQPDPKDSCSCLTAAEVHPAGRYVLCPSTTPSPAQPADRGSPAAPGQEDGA
Sequence of UniProt P38489 (whole entry, looked up): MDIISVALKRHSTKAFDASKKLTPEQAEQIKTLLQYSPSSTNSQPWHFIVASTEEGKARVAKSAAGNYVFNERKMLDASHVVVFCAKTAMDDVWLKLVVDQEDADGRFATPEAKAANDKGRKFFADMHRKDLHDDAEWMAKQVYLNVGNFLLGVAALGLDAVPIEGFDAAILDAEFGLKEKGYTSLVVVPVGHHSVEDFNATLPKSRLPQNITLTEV
Sequence of UniProt P23895 (whole entry, looked up): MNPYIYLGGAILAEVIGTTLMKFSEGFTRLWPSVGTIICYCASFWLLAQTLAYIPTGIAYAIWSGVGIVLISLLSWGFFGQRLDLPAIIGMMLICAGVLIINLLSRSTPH

C=C(c1ccccc1)[C@H](N)P(=O)(O)O — ΔH (PAL1 (Petroselinum crispum, UniProt P24481, Y110F); binding, ITC): -6 kcal/mol
COCC1CCCCN1C(=O)n1cc(C(O)(c2ccccc2)c2ccccc2)nn1 (stereo not drawn) — SILAC activity ratio (Palmitoyl-protein thioesterase ABHD10, mitochondrial; probe labelling, inhibitor, competitive ABPP-SILAC, item: Abhd10; mouse T cells; concentration not given, 4 h, protein level; baseline: treated over DMSO cells, lower = stronger inhibition): 1.35
CCOC(=O)[C@@H]1Cc2c(cc([N+](=O)[O-])cc2[N+](=O)[O-])[C@H](O)[C@]12C(=O)Nc1ccc(Br)cc12 — remaining binding (AXL (Homo sapiens, UniProt P30530); binding, competition with immobilised ligand; 0.1 µM): 53%
Cc1ccc(NS(=O)(=O)c2c(C)[nH]c(C)c2C(=O)N2CCCC2)cc1 — Imax (DRD3 (Homo sapiens, UniProt P35462); β-arrestin recruitment, agonist, PathHunter; baseline: dopamine): 97 ± 12%
CC(C)[C@H]1NC(=O)C[C@H]2/C=C/CCSSC[C@@H](NC1=O)C(=O)N[C@H](Cc1cccc3ccccc13)C(=O)NCC(=O)O2 — inhibition (EPHB4 (Homo sapiens, UniProt P54760); enzyme activity, inhibitor; 10 µM): -0.3%
CS(C)(=O)=Nc1ccc(-c2ccc(-c3nc4cc(O[C@@H]5CO[C@H]6[C@@H]5OC[C@H]6O)[nH]c4cc3F)cc2)cc1 — inhibition (FGFR1 (Homo sapiens, UniProt P11362); enzyme activity, inhibitor; 10 µM): -45%
C[C@H](NCc1ccc(-c2ccc(C(F)(F)F)cc2)cc1)C(N)=O — inhibition (CYSLTR1 (Homo sapiens, UniProt Q9Y271); radioligand binding, SafetyScreen panel; 1 µM, species human, with: 0.30 nM [3H]LTD4): 2%
C#CCCCCOc1ccc2c(c1)CCCN2C(=O)CCl — cysteine reactivity ratio (CD44 antigen (Homo sapiens, UniProt P16070); MS-ABPP alkyne probe; H460 cell lysate; baseline: high over low probe): 0.984
C[N+](C)(C)CCCCCNc1ccc([N+](=O)[O-])c2nonc12 — transport half-time (emrE (Escherichia coli, UniProt P23895); substrate, proteoliposome transport; 500 µM internal, pH 7.5): ~12 s
Cc1cc(-c2ccc3ccccc3c2)nnc1NCCN1CCN(C)CC1 — activity (HTR1A (Homo sapiens, UniProt P08908); antagonist; 10000 nM; baseline: control): 0%
N[C@H](Cc1ccccc1)P(=O)(O)O — reaction rate reduction (PAL1 (Petroselinum crispum, UniProt P24481); L-Phe deamination, inhibitor, UV steady-state kinetics; 1000 µM, with: L-Phe 1 mM): 22%
CCCC[C@H]1CNCCN1C[C@@H]1CCCN1C[C@H](CC1CCCCC1)N1CCN(CCc2ccc(Cl)c(Cl)c2)[C@H]([C@@H](C)O)C1 — remaining binding (Oprd1; radioligand binding; rat brain membranes; 500 nM, pH 7.5, 25 °C, with: 2 nM [3H]DPDPE): 90.9%
CN(C)[C@H]1C[C@@]23CC[C@@]4(O2)C(=CC[C@]2(C)[C@@H](c5ccc6ccncc6c5)CC[C@H]24)C=C3[C@@H](O)[C@@H]1O — inhibition (STE20-related kinase adapter protein beta (Homo sapiens, UniProt Q9C0K7); ATP probe labelling, inhibitor, KiNativ profiling; 0.1 µM): 4.2%
O=C1NC(=O)c2c1c1cc(F)c[n+]3c1c1c2c2cc(O)ccc2[n]1[Ru-4]312([N]=C=S)[S+]3CC[S+]1CC[S+]2CC3 (stereo not drawn) — remaining activity (ROCK1 (Homo sapiens, UniProt Q13464); enzyme activity; 100 nM, human enzyme, with: 10 µM ATP; baseline: untreated): 98%
[CH3][Ti+2][O]C(=O)c1ccc([S][Au][PH](c2ccccc2)(c2ccccc2)c2ccccc2)cc1.c1cc[cH-]c1.c1cc[cH-]c1 — remaining activity (MAPK13 (Homo sapiens, UniProt O15264); kinase activity, HotSpot radiometric; 1 µM, with: ATP 10 µM; baseline: vehicle): 97.6% and 94.4%
CC(=O)N[C@H](C(=O)N[C@@H](CCCNC(=N)N)C(=O)NCC(=O)N[C@@H](CO)C(=O)N[C@@H](CS)C(=O)N[C@@H](CCCNC(=N)N)C(=O)N[C@@H](CCCCN)C(=O)N[C@@H](CCCNC(=N)N)C(=O)N[C@@H](CC(N)=O)C(=O)N[C@@H](CCCNC(=N)N)C(=O)N[C@@H](CO)C(=O)N1CCC[C@H]1C(=O)N[C@@H](CCC(=O)O)C(=O)N[C@@H](CCCNC(=N)N)C(N)=O)[C@@H](C)O — ΔH (WDR5 (Homo sapiens, UniProt P61964); binding, isothermal titration calorimetry; pH 7.0, 20 °C): -18.7 kcal/mol
COc1ccccc1-c1n[nH]c2nc(N[C@H]3CC[C@H](NS(=O)(=O)CC(C)C)CC3)ncc12 — remaining binding (cdc2-related kinase 12 (Leishmania donovani, UniProt A0A3S7WQK2); bead pull-down competition; Leishmania donovani extract; 10 µM; baseline: vehicle): 13%
O=S(=O)(F)c1cccc(S(=O)(=O)Nc2ccc(C3CC3)c(F)c2)c1 — kinact (GTPase KRas (KRAS, Homo sapiens, UniProt P01116); enzyme activity, inhibitor): 2.5e-05 s⁻¹
C=CC(=O)Nc1cc(-c2ccc(C(=O)N3CCCC(O)(CC)C3)cc2)ccc1F (stereo not drawn) — adducted protein (DNA dC->dU-editing enzyme APOBEC-3B, C-terminal domain (Homo sapiens, UniProt Q9UH17); covalent adduct, intact protein MS, item: mass +397 Da adduct of 25735 Da; 125 µM, 1 h, 5-fold molar excess): 11% and 14%
O=C(O)c1cccc(CP(=O)(O)O)n1 — dissociative half-life (Beta-lactamase L1 (Stenotrophomonas maltophilia, UniProt P52700); binding, inhibitor, nitrocefin progress curves): 11 ± 1.9 min
CC(C)CC(O)(CC(C)C)c1cn(C(=O)N2CCCC2)nn1 — activity ratio-of-ratios (Neutral cholesterol ester hydrolase 1 (Mus musculus, UniProt Q8BLF1); probe labelling, inhibitor, item: Aadacl1; mouse, brain; i.p., 0.8 mg/kg, 4 h, protein level; baseline: treated over vehicle mice, lower = stronger inhibition): 0.96
COC(=O)[C@@H](NC(=O)c1nn(Cc2ccc(F)cc2)c2cc(OCCCCNC(N)=O)ccc12)C(C)(C)C — maximal efficacy (Cannabinoid receptor 1, with Goa (CNR1, Homo sapiens, UniProt P21554); GTP turnover, agonist, item: Goa Gα subtype): 113%
Cc1nnc(C(C)C)n1C1CC2CCC(C1)N2CCC(NC(=O)Cc1ccc(-c2nncnn2)cc1)c1ccccc1 (stereo not drawn) — bottom of curve (CCR5 (Homo sapiens, UniProt P51681); calcium mobilisation, antagonist; HEK-293T expressing CCR5; top constrained to 1, with: PSC-RANTES): 0.124 fraction of maximum
C=CC(=O)NC[C@H](NC(=O)[C@H](CC1CCCCC1)NC(=O)[C@H](CCC(N)=O)NC(C)=O)C(=O)N[C@@H](CC(C)C)C(=O)N[C@@H](Cc1ccccc1)C(=O)O — ΔH (Beta sliding clamp (Escherichia coli, UniProt P0A988); binding, isothermal titration calorimetry; 25 °C): -12.8 kcal/mol
Cc1ccc(N2CC3CCC(C2)N3C)cc1C(=O)N[C@H](C)c1cc(-c2cnn(C)c2)nc2ccccc12 — remaining activity (CAPN1 (Homo sapiens, UniProt P07384); enzyme activity; 30 µM, 0.5 h): 113%
Oc1ccc(C[C@@H]2CN([C@@H](CC3CCCCC3)CN3CCC[C@H]3CN3CCNC[C@@H]3Cc3ccc4ccccc4c3)CCN2CCc2ccc(Cl)c(Cl)c2)cc1 — remaining binding (Oprd1; radioligand binding; rat brain membranes; 500 nM, pH 7.5, 25 °C, with: 2 nM [3H]DPDPE): 98.9%
COc1c(N2CC3CCCNC3C2)c(F)cc2c(=O)c(C(=O)OCc3ccc([N+](=O)[O-])s3)cn(C3CC3)c12 (stereo not drawn) — kcat (nfsB (Escherichia coli K-12, UniProt P38489); substrate; with: NADH 100 µM): 0.86 s⁻¹
O=C(N1CCCCC1)n1ccnn1 — SILAC activity ratio (Palmitoyl-protein thioesterase ABHD10, mitochondrial; probe labelling, inhibitor, competitive ABPP-SILAC, item: Abhd10; mouse T cells; concentration not given, 4 h, protein level; baseline: treated over DMSO cells, lower = stronger inhibition): 1.06
CC[C@@H](C)[C@@H]1CN([C@H](Cc2ccc3ccccc3c2)CN2CCC[C@H]2CN2CCNC[C@@H]2CO)CCN1CCCC1CCCC1 — remaining binding (Oprd1; radioligand binding; rat brain membranes; 500 nM, pH 7.5, 25 °C, with: 2 nM [3H]DPDPE): 88.9%
N[C@H](C(=O)N1CCCC1)C1CCN(c2nccc3c(-c4ncc(Cl)cc4Cl)cccc23)CC1 — kcat (PADI2 (Homo sapiens, UniProt Q9Y2J8); enzyme activity; 0.2458 µM, with: Ca2+ 0.25 mM): 0.18 s⁻¹ and 0.202 s⁻¹

A few entries again:
CCOC(=O)[C@@H]1Cc2c(cc([N+](=O)[O-])cc2[N+](=O)[O-])[C@H](O)[C@]12C(=O)Nc1ccc(Br)cc12 — remaining binding (AXL (Homo sapiens, UniProt P30530); binding, competition with immobilised ligand; 0.1 µM): 53%
Cc1ccc(NS(=O)(=O)c2c(C)[nH]c(C)c2C(=O)N2CCCC2)cc1 — Imax (DRD3 (Homo sapiens, UniProt P35462); β-arrestin recruitment, agonist, PathHunter; baseline: dopamine): 97 ± 12%
CC(C)[C@H]1NC(=O)C[C@H]2/C=C/CCSSC[C@@H](NC1=O)C(=O)N[C@H](Cc1cccc3ccccc13)C(=O)NCC(=O)O2 — inhibition (EPHB4 (Homo sapiens, UniProt P54760); enzyme activity, inhibitor; 10 µM): -0.3%
CS(C)(=O)=Nc1ccc(-c2ccc(-c3nc4cc(O[C@@H]5CO[C@H]6[C@@H]5OC[C@H]6O)[nH]c4cc3F)cc2)cc1 — inhibition (FGFR1 (Homo sapiens, UniProt P11362); enzyme activity, inhibitor; 10 µM): -45%
C[C@H](NCc1ccc(-c2ccc(C(F)(F)F)cc2)cc1)C(N)=O — inhibition (CYSLTR1 (Homo sapiens, UniProt Q9Y271); radioligand binding, SafetyScreen panel; 1 µM, species human, with: 0.30 nM [3H]LTD4): 2%
